# Experimental data gathered from unrelated publications.
# A part holds a random share of what one study measured.

# Sample 1
# Target: RING finger protein unkempt homolog, zinc fingers 1-6, GST-SBP tag (UNK, Homo sapiens, UniProt Q9C0B0, residues 30-357)
# Method: RNA Bind-n-Seq
# Molecule type: RNA
# Medium: in vitro
# Tested at: not given
# Notes: RNA with constant flanks, human-mouse chimeric sites, ends assumed
# Reference: input RNA pool
# Direction: higher = stronger binding
# Constant ends, left off below: GGGAGUUCUACAGUCCGACGAUC … CAACAGAGGAUUGAGCAUCA
# Residues (chain): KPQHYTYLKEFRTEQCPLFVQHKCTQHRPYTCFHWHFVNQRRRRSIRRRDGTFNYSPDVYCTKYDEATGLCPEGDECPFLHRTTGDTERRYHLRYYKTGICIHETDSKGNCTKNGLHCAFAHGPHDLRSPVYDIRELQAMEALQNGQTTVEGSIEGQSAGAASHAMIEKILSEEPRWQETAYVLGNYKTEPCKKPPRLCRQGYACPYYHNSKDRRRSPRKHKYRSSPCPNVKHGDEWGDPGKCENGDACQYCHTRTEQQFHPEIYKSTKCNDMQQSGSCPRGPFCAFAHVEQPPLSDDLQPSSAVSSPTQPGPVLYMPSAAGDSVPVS
Strand,bound/input enrichment [ratio]
AGCACAACCCCAGCAAAGCUCAGGAACCCUUGUACAAGUGAACAAAACUGCACCAGCCCAUUUAGCUACAAAAAUGUGCUUAGUCUUACUGACAGAGGAGAGUUUUUCAAUGAACUUGUU,1.1
CGGAAGUUCUUGAUUUAGUGGCUGGGCCUUUUCUUUCUUUCCUUUAGGAAAAGCCUAAAGAUUAGGUUGUAAGAAAAACAGAAGCCAUGUUUCGAAGACCUGUGUUACAGGUAUUUCGUC,0.201
GUGCCCUCCUUCUCGCUCCUGCGGGGCAGCUGGGAACCAUUCCGGGACUGGUACCCUGCACACAGCCGCCUCUUCGAUCAAGCUUUCGGGGUGCCCCGGUUGCCCGAUGAGUGGUCGCAG,0.0549
UGUGCAUUAUGAUGCUUAGAUGGUUUUUGCAAAAGCAGAAAUCGCUGCAAGGUAAUCACAAUAGAUAAAAGUGGUAUUUUAAACCUUUGAAAUAAAUGGAUGUAACUGUACGUUGGUACA,1
AACUUCGUGCAUCGGUUUCCCUUUGUAGCUGUUUCAAUUGGCUUCCUUGUGAAUAAAGAGAUGGAGUUUGGAAUUGUGUACAGUUGUGUGGAAGAUAAGAUGUACACCGGCAGGAAAGGG,0.466
GUGUCCUGCUUUCAACUUAAAUCACUGAGGCAUCUCUACUGUUCUGUGAGCAUCAGGAUUUUAGUGCUGUGUCACCACAUGAGAGUUGUUAAGCAGCCUUUCUGUGGAGGGUGGGAAUGA,0.174
CGGAGCCCUCCUCUCCCACAGGCCCAAGAUGUGACCCACCAGUGCCUUUUGUCUUCCUGUCAGCUCUAAUCAAUCAUCCUGUCCUCUCACGCCCACACCAAGUGCCCAAAGUGGGGAGGG,0.325
GAAUCCUACUCAGGCGGAUUUUGCAACCUGAAUGCAACAGCAGCAGCAUCUUAGUCACAGUAGGGUAGUUUUGGGGCUCUGUGGCCAGGGUUUUAUUCACAUGCAGGUUUUGAAAAUGUA,0.933
UAUAAUAAUCAUGAAAUUCGUUCUGGAAAGCACAUUGGUGUCUGCAUCUCAGUUGCCAACAAUAGGCUUUUUGUGGGCUCUAUUCCUAAGAGUAAAACCAAGGAGCAGAUUCUUGAGGAA,0.436
AAUUUCCUGUCAUACUUUUUAGACAUUCACAUCAGACGCCUUACUACCCUGGCCACAUUCUAGGUUUGUGUUAUUUCUCAGCUAUGGAUAUGAUCAAAUGAGAACACUGCUUAACUAAUG,0.616
AGGAGGAGGUUAAAGGGUGAGAGUGGGAUGGAGGAUUGUGUCAUGGCUCUGGAGACACUGUUCAGUGUCCUGCUUUCUCUGUGCAGACUUAUGGCUCCUUACACGCCCUUUCUGACUGAG,0.139

# Sample 2
# Target: Interferon regulatory factor 7, full length, phosphomimetic (IRF7, Homo sapiens, UniProt Q92985, residues 1-503, S471D/S472D/S475D/S476D/S477D/S483D/S484D/S487D)
# UniProt Q92985, sequence (whole entry, unmodified, looked up): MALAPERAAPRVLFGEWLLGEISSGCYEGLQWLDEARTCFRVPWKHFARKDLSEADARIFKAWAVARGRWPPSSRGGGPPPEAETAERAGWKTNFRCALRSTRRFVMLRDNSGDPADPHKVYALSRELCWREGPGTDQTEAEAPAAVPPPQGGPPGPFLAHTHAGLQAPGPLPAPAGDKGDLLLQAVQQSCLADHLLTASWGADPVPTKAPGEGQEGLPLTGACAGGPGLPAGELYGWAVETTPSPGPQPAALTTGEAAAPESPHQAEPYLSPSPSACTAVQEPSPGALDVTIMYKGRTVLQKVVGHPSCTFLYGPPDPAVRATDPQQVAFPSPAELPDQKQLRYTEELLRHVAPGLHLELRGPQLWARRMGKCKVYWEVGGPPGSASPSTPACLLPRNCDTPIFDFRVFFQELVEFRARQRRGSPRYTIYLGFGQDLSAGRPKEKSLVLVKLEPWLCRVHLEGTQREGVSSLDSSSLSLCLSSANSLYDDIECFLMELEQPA
# Method: protein-binding microarray
# Molecule type: double-stranded DNA, one strand shown
# Medium: in vitro
# Tested at: 2200 nM top
# Notes: 60-bp whole probe
# With: salmon DNA 0.4 mg/ml
# Reference: random background probes
# Direction: higher = stronger binding
# Constant ends, left off below: GCCTAGCAC … GTCTTGATTCGCTTGACGCTGCTG
Strand,fitted relative affinity
TCAGGACTGGGTATCGGTTAGTGCTAG,-0.319 z-score
TTAGGTATCGGGTATCTGTTAGTGCTA,0.638 z-score
TTAGGTTCCCTTCTCCTTTAGTGCTAG,1.89 z-score
GACGGACTGGGGACTTGGGACGTGCTA,-0.919 z-score
TATAGGTTGTTTCTAATATTGTGCTAG,0.686 z-score
GCCGGTATCGGGTATCGGGACGTGCTA,-0.0415 z-score
TCTCCTTTCCAAATACCCTCGTGCTAG,3.27 z-score
GACGGTATCGGTTTTGGGACGTGCTAG,1.61 z-score
AGTATGTTCCTTATTTAAGAGTGCTAG,0.975 z-score
GACGCACTGGGGTTTCGAGACGTGCTA,0.942 z-score
TTAGGTATCCTTTACCTTTAGTGCTAG,0.662 z-score
GACGAACTGAGTCTCGAAACGTGCTAG,0.215 z-score
GACGGTATCGGTCTCGGGATGTGCTAG,0.283 z-score
TCACATGTGGGTTCCATACTGTGCTAG,1.17 z-score
GACGAAGTGAGTTTCGAGACGTGCTAG,2.03 z-score
TTAGGTATGGACTATCGGTTAGTGCTA,0.0673 z-score
GACGGTATCCGTTTCCTGACGTGCTAG,1.48 z-score

# Sample 3
# Target: Histone acetyltransferase KAT6A, both winged helices, GST fusion (KAT6A, Homo sapiens, UniProt Q92794, residues 1-181)
# Method: protein binding microarray
# Molecule type: double-stranded DNA, one strand shown
# Medium: in vitro
# Tested at: not given
# Notes: 8-mer, flanks averaged, mean of 2 arrays, mostly near background
# Reference: not given
# Direction: higher = stronger binding
# Residues (chain): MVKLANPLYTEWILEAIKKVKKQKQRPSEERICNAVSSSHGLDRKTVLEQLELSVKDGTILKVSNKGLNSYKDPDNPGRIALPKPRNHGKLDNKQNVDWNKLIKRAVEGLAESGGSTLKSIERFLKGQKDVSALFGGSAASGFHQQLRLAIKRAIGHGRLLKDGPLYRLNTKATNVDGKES
Strand,E-score
CGCGAAAA,0.228
TCCCGGGA,0.318
CCTCTGTC,-0.00904
AAGCTTCA,-0.115
CGATAGCC,0.137
GAGATCCA,-0.079
GCAAAATA,-0.0771
GAAACTGC,0.0764
AGATGCTA,-0.179
AATACCGG,0.106
GTCAGCAA,-0.081
ATCCACAC,-0.302
GCAAGGTA,-0.045
TAATTATA,-0.0895
GCTCGAAA,-0.0557
AAATACGT,-0.0951
CCTCTAGA,-0.0739
ATCCAGCA,-0.176
ACCACCAT,-0.0696
AGAGTCGA,-0.137
AAATGCAC,-0.107

# Sample 4
# Target: Sal-like protein 4, full length isoform A (SALL4, Homo sapiens, UniProt Q9UJQ4, residues 1-1053)
# UniProt Q9UJQ4, sequence (whole entry, looked up): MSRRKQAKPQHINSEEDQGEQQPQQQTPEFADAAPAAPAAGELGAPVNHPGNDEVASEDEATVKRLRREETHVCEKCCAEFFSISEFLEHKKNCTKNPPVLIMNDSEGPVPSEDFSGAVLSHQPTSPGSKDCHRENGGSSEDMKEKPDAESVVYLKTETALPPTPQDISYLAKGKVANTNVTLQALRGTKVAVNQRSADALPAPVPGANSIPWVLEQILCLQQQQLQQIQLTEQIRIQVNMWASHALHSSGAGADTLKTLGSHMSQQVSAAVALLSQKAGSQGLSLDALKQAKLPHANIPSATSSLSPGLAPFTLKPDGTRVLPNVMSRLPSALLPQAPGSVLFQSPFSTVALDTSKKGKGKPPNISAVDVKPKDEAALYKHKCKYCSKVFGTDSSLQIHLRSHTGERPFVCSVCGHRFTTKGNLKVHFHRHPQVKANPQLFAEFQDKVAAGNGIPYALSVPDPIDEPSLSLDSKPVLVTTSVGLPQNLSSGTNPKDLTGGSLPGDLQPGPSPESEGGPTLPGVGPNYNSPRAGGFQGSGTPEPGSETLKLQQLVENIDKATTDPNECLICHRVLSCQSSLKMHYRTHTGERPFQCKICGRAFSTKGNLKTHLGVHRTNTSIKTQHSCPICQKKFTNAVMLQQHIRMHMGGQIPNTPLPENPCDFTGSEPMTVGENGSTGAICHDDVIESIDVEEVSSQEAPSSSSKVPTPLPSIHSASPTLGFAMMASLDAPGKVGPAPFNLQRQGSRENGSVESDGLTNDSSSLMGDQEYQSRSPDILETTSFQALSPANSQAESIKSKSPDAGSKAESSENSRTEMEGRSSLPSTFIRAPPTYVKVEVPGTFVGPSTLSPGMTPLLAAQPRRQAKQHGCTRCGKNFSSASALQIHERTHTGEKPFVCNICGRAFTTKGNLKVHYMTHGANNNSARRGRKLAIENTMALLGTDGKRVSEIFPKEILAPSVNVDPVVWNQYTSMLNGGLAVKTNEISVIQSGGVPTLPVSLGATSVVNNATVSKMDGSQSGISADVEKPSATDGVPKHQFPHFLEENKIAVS
# Method: universal PBM
# Molecule type: double-stranded DNA, one strand shown
# Medium: in vitro
# Tested at: 600 nM
# Notes: 8-mer, flanks averaged, mean of replicates
# Direction: higher = stronger binding
Strand,E-score
GCCACCGC,-0.295
CCTGTGTC,-0.286
TCCCTCAA,-0.0796
GCGCCAGA,-0.231
GGGTCCCA,-0.263
ATTTTGCA,0.291
AGAAGATA,0.277
CACCTTGG,-0.232
CACGCTTC,-0.324
TGATTTAA,0.278
ATACCTTA,0.206
GCTGACGA,-0.07
CCCTCGGA,-0.223
ATAGATCC,0.0963
ACACGACT,0.0318
GGGCTGCA,-0.0836
TCGCCTCA,-0.072
CGTCAATA,0.176
GATGAAGC,-0.0827
GGACGCGA,-0.15
CTCTAACA,0.106
CAGACGAG,-0.0256
TTACCCAA,0.044
AATTGCCT,0.201
CCCGCCGC,-0.375

# Sample 5
# Target: Centromere-binding protein 1, full length, His-tagged (CBF1, Saccharomyces cerevisiae, UniProt P17106, residues 1-351)
# UniProt P17106, sequence (whole entry, looked up): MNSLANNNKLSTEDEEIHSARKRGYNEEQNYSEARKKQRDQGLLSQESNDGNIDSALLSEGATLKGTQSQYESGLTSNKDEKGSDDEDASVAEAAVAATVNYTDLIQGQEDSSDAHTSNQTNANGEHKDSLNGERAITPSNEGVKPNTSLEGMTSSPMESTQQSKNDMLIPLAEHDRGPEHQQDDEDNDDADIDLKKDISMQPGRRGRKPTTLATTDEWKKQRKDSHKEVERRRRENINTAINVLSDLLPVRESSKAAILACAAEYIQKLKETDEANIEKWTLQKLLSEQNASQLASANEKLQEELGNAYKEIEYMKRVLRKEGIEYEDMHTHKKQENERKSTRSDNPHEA
# Method: competition protein-binding microarray
# Molecule type: double-stranded DNA, one strand shown
# Medium: in vitro
# Tested at: 2 µM
# Notes: whole 60-bp probe, lowest competitor level
# With: Pho4 competitor, 0.05 µM
# Direction: higher = stronger binding
# Constant ends, left off below: … GTCTTGATTCGCTTGACGCTGCTG
Strand,fluorescence intensity [a.u.]
GAGCTTGTGGGTCAACACGTTTCTTGGGATGAGACA,110
CTTCTGTAAATTTGATGGGTGGGTGGACGCGCCCCG,89.1
CGTCCTAGTGATTGTGATGTGGGTGCCATGAGGAAG,91.5
TGCGCAACAACTTGTCACTTGACTTTATGTCTAGAA,139
CTAACGAAGGTTTGTCGGGTGGGTGACAAGCCAAGT,65.8
GAAAGATGTAGAAAACTCGTGGAGGTAGGATTATAC,80.7
AAAGCGGTAATTTGAATAGTGGGTGCAGATATCTAT,82.5
TGCTATTTATAGACGCGCGTGTCGGAATCAGGAAGC,103
AAAGCGGTAATTTGCGCTGTGGGTGCAGATATCTAT,77.9
AGAAGTTTACCAAAACACGTGCAAAGATCCTACGAT,1770
CATACCCAACCTTGCACTGTGGGTGAAGATATTTGT,69.1
TTTGTTTACTAAAAACACATGTGTGTATCTTGACTG,220
GTAAAAGTGGCAGCACACCTGATCTAATACTAGCTA,251
CTGGAGCTGTTTCCAAACGTGGCCGGGCAATTGAGC,68.5
AAATTACTAAGTTGGCGTGTGGGTGACGCCGTATGA,75
CGGATCGCATTATTGCACGATATCGCCGAATCTTTA,66.7
CATACCCAACCTTGTAGCGTGGGTGAAGATATTTGT,71.2

# For quick reference, copied from above (sample 3):
Strand,E-score
GTCAGCAA,-0.081
ATCCACAC,-0.302
GCAAGGTA,-0.045
TAATTATA,-0.0895
GCTCGAAA,-0.0557
AAATACGT,-0.0951
CCTCTAGA,-0.0739
